Measurements pooled from the literature.
Each line is one published result; not all experiments were run side by side. ± gives the spread as reported.

CC[C@H](C)[C@H](NC(=O)[C@H](CC(C)C)NC(=O)[C@H](Cc1c[nH]c2ccccc12)NC(=O)[C@H](C)NC(=O)[C@@H](NC(=O)[C@H](Cc1ccccc1)NC(=O)[C@H](CC(=O)O)NC(=O)[C@H](CCCNC(=N)N)NC(=O)[C@H](C)NC(=O)[C@H](C)NC(=O)[C@H](CC(C)C)NC(=O)[C@H](C)NC(=O)[C@H](CC(=O)O)NC(=O)[C@H](CC(C)C)NC(=O)[C@@H](NC(=O)[C@@H](NC(=O)[C@H](C)NC(=O)[C@H](CC(C)C)NC(=O)[C@H](CCC(=O)O)NC(=O)[C@H](CO)NC(=O)[C@H](CO)NC(=O)[C@H](Cc1ccccc1)NC(=O)[C@@H](NC(=O)CNC(=O)[C@H](CCC(=O)O)NC(=O)CNC(=O)[C@@H](N)Cc1cnc[nH]1)[C@@H](C)O)[C@@H](C)O)[C@@H](C)CC)[C@@H](C)CC)C(=O)N[C@@H](C)C(=O)N[C@H](C(=O)N[C@@H](CCCCN)C(=O)N[C@H](C(=O)N[C@H](C(=O)N[C@@H](CC(=O)O)C(=O)N[C@@H](CCCCN)C(=O)N[C@@H](CCCCN)C(=O)N[C@@H](CCCCN)C(=O)N[C@@H](CCCCN)C(=O)N[C@@H](CCCCN)C(=O)N[C@@H](CCCCN)C(N)=O)[C@@H](C)O)[C@@H](C)CC)[C@@H](C)O — AUC(0-tau) (healthy humans, plasma; subcutaneous, 10 mg once weekly, 6 doses, day 36, geometric mean): 232 nM·h
CC(C)[C@H](NC(=O)CNC(=O)[C@H](CCC(N)=O)NC(=O)[C@H](C)N)C(=O)O — Cmax (human male, plasma; intravenous infusion, 10 mg/kg single, 15 min infusion, geometric mean): 1340 ng/mL
CN1C(=O)c2cccc3c2C1=Cc1ccccc1N3Cc1cccc(NC2CCN([11CH3])CC2)c1 — SUV (PET/CT; C57BL/6 mouse male, lung; intravenous, 5 min): 1.05
COc1ccc(/C=C/c2ccc(-c3ccc(C)cn3)nc2)cc1 — emission shift on zinc binding (acetonitrile; concentration not given, added: Zn(ClO4)2, saturating; reference: zinc-free ligand): 4440 cm⁻¹
CC(=O)N[C@H](CC(=O)O)C(=O)N[C@H](Cc1c[nH]c2ccccc12)C(=O)N[C@H](Cc1ccccc1)C(=O)N[C@H](CCCCN)C(=O)N[C@H](C)C(=O)N[C@H](Cc1ccccc1)C(=O)N[C@H](Cc1ccc(O)cc1)C(=O)N[C@H](CC(=O)O)C(=O)N[C@H](CCCCN)C(=O)N[C@@H](C(=O)N[C@H](C)C(=O)N[C@H](CCC(=O)O)C(=O)N[C@H](CCCCN)C(=O)N[C@H](Cc1ccccc1)C(=O)N[C@H](CCCCN)C(=O)N[C@H](CCC(=O)O)C(=O)N[C@H](C)C(=O)N[C@H](Cc1ccccc1)C(N)=O)C(C)C — Cmax (statin-treated high-risk CHD women, plasma; oral, 100 mg daily, day 1, 0 to 2 h, mean, undetectable set to 0): 4.03 ng/mL
Cc1[nH]c(/C=C2\C(=O)Nc3ccc(F)cc32)c(C)c1NC(=O)CCN1CCN(C)CC1 — elimination rate constant (Beagle dog, both sexes, plasma; oral, 3 mg/kg): 0.07 ± 0.01 h⁻¹
Oc1cccc(-c2cccc(O)n2)n1.[Cl-].[Cl-].[Ru+2].c1cnc2c(c1)c1c(c3cccnc32)OCCO1.c1cnc2c(c1)c1c(c3cccnc32)OCCO1 — logD (shake flask; octanol/phosphate buffer; pH 8.00): 2.1
Cc1ccc(OCC(=O)O)cc1 — AUC(0-last) (Sprague-Dawley rat, male, plasma; oral gavage, 100 mg/kg of parent drug): 47500 ± 19000 ng·h/mL
Cn1c(=O)oc2ccc(-c3ccc(CC(C#N)NC(=O)C4CNCCCO4)c(F)c3)cc21 (stereo not drawn) — subjects with TEAE (item: anaemia; human; 80 mg single dose, fasted): 0%
CCCC[C@H](NC(=O)CNC(=O)CNC(=O)CN1CCN(CC(=O)O)CCN(CC(=O)O)CCN(CC(=O)O)CC1)C(=O)N[C@H]1CC(=O)NCCCC[C@@H](C(N)=O)NC(=O)[C@H](Cc2c[nH]c3ccccc23)NC(=O)[C@H](CCCNC(=N)N)NC(=O)[C@@H](Cc2ccccc2)NC(=O)[C@H](Cc2c[nH]cn2)NC1=O [copper-64 labelled] — uptake ratio (female C57 mouse, B16/F1 melanoma; intravenous, 0.037 MBq, 0.5 h; reference: tumour over heart): 2.53
CCC(c1nnnn1Cc1cccs1)N1CCN(c2nc3cc(N)cc(F)c3s2)CC1 (stereo not drawn) — critical aggregation concentration (light scattering; DNase I buffer; 5% DMSO): 42.5 µM
NCCCC(=O)OCC(=O)c1ccc(O)c(F)c1F.O=C(O)C(F)(F)F — quantum yield (photolysis, item: disappearance of compound; unbuffered water): 0.24
COCC1CN(C2CCN(c3cc(OC)c(Nc4ncc(Br)c(Nc5ccc6c(c5P(C)(C)=O)OCCO6)n4)cc3C)CC2)C1 — treatment-related ALP increased, all grades (human patients; oral, 10 to 240 mg once daily): 14.8%
C[C@]12C[C@H](c3ccc(S(C)(=O)=O)cc3)C3=C4CCC(=O)C=C4CC[C@H]3[C@@H]1CC[C@@]2(O)C(F)(F)C(F)(F)F — fraction unbound (rabbit, plasma): 0.05
NCCCC(=O)OCC(=O)c1cc(F)c(O)c(F)c1F.O=C(O)C(F)(F)F — quantum yield (photolysis, item: rearranged acid appearance; aqueous HEPES buffer with LiClO4; pH 7.3): 0.04
CN1CCC[C@]1(C)/C=C/S(=O)(=O)NC(=O)Nc1c2c(cc3c1CCC3)CCC2 — percent of dose in urine (human, urine; oral, 400 mg single dose): 50.3%
O=C(O)[C@@H]1C[C@@H](O)CN1C(=O)[C@@H]1CCCN1 — log beta (potentiometric titration; 37 °C, MA complex, added: Fe(III)): 15
CN1C(=O)[C@@H](Cc2ccc(O)c(I)c2)NC(=O)CNC(=O)[C@H](Cc2ccc3ccccc3c2)NC(=O)[C@H](CCCNC(=N)N)NC(=O)[C@H]1CCCNC(=O)c1ccc(CNC(=O)CN2CCN(CC(=O)O)CCN(CC(=O)O)CCN(CC(=O)O)CC2)cc1 [lutetium-177 labelled] — absorbed organ dose (SPECT/CT and planar imaging; human, spleen): 0.81 mGy/MBq
O=C(NC1CCCCC1)C(c1ccccn1)N(C(=O)CCl)c1cccc(F)c1 (racemic) — conversion to pyridinium salt (HPLC-MS; DPBS; 3 h, 37 °C): > 50%
Brc1ccc(Nc2nc(NN=Cc3c[nH]c4ccccc34)nc(N3CCOCC3)n2)cc1 — metabolic stability (human liver microsomes): stable
N=C(N)NS(=O)(=O)c1ccc(-n2cc(Cn3c(=O)c(Cc4ccccc4)nc4ccccc43)nn2)cc1 — safe concentration (MTT; rat primary colonocytes, Albino rat, male; 72 h, concentration at 100% viability): 0.047 ± 0.006 µM
CCCCCCCCCCCCCCCC(=O)N[C@@H](CCC(=O)NCCCC[C@H](NC(=O)[C@H](CC(=O)O)NC(=O)[C@H](CO)NC(=O)[C@@H](NC(=O)[C@H](Cc1ccccc1)NC(=O)[C@@H](NC(=O)CNC(=O)[C@H](CCC(N)=O)NC(=O)[C@H](CO)NC(=O)[C@@H](N)Cc1c[nH]cn1)[C@@H](C)O)[C@@H](C)O)C(=O)N[C@@H](CO)C(=O)N[C@@H](CCC(=O)O)C(=O)N[C@@H](Cc1ccc(O)cc1)C(=O)N[C@@H](CC(C)C)C(=O)N[C@@H](CC(=O)O)C(=O)N[C@@H](CO)C(=O)N[C@@H](CCC(=O)O)C(=O)N[C@@H](CCCNC(=N)N)C(=O)N[C@@H](C)C(=O)N[C@@H](CCCNC(=N)N)C(=O)N[C@@H](CC(=O)O)C(=O)N[C@@H](Cc1ccccc1)C(=O)N[C@H](C(=O)N[C@@H](C)C(=O)N[C@@H](Cc1c[nH]c2ccccc12)C(=O)N[C@@H](CC(C)C)C(=O)N[C@@H](CCC(=O)O)C(=O)N[C@@H](C)C(=O)NCC(=O)NCC(=O)O)C(C)C)C(=O)O — terminal half-life (cynomolgus monkey, plasma; subcutaneous, dose not given, single dose): 5 to 8 h
COc1cc(NC(C)=O)c2c(c1O)-c1c(OC)c(OC)cc3c1C(C2)N(C)CC3 (stereo not drawn) — remaining compound (rat brain homogenate; 5 µg/mL, 40 d, -20 °C, long-term storage): 88.5 ± 3%
CC(C)[C@H](NC(=O)[C@@H]1CCCN1C(=O)[C@H](CCCNC(=N)N)NC(=O)[C@H](CS)NC(=O)[C@H](Cc1c[nH]c2ccccc12)NC(=O)[C@H](CCCNC(=N)N)NC(=O)[C@@H](Cc1ccccc1)NC(=O)[C@H](Cc1c[nH]cn1)NC(=O)[C@H](CCC(=O)O)NC(=O)[C@H](CS)NC(=O)[C@H](CS)NC(=O)COCCOCCNC(=O)[C@@H]1CC(=O)N[C@@H](CCCNC(=N)N)C(=O)NCC(=O)N[C@@H](CC(=O)O)C(=O)N[C@H](Cc2ccc(O)cc2)C(=O)N1)C(N)=O [technetium-99m labelled] — tumour-to-tissue ratio (nude mouse, M21 melanoma xenograft, tumour over liver; intravenous, 0.037 MBq, 2 h; reference: tumour over liver): 1.53 ± 0.14
N#CC1(c2ccc3c(N)ncnn23)OC(COP(=O)(O)O)C(O)C1O (stereo not drawn) — last detectable time (LC-MS/MS; male CD-1 mice, liver, kidney and lung; oral, 100 mg/kg of remdesivir): ≤ 16 h
CN(C)c1cccc2c(S(=O)(=O)NCCCCCCCC(=O)NO)cccc12 — emission wavelength (fluorescence): 500 nm
COCCOCCOCCOCCOCCOCCOCCOCCC(=O)NCCCc1cc2cc3nc(cc4[nH]c(cc5nc(c(OC)c1[nH]2)C(=O)C5(C)C)cc4CCc1ccc(C(=O)O)cc1)CC3(C)C — B band absorption maximum (water with 5% DMF; room temperature): 411 nm
NC[C@@H](C(=O)Nc1ccc(-c2cn[nH]c2)cc1)c1ccccc1 — microsomal CLint (metabolic stability; rabbit, liver microsomes): 16.9 µL/min/mg
CCCCCCCCCCCCCCCC(=O)NCCOCCOCCOCCOCCOCCOCCOCCOCCC(=O)NCCCC[C@H](NC(=O)CNC(=O)[C@@H]1CSSC[C@H](N)C(=O)N[C@@H](Cc2ccc(O)cc2)C(=O)N[C@@H]([C@@H](C)CC)C(=O)N[C@@H](CCC(N)=O)C(=O)N[C@@H](CC(N)=O)C(=O)N1)C(=O)NCC(N)=O — CSF to plasma unbound ratio (rat; subcutaneous depot, 10 mg/kg): 0.02
C[C@H](NC(=O)COC(=O)[C@H](C)NC(=O)CO)C(=O)O — depolymerization half-life (water; pH 4, 37 °C): 62.6 h
CN(C)c1ccc(-c2nc3ccc(OCCCCCN4CCN5CCN(CC4)CC(=O)[O][Al]([18F])[O]C(=O)C5)cc3s2)cc1 — stomach uptake (ICR mouse; intravenous, dose not given, 30 min): 2.81 ± 2.13 % injected dose/organ
Oc1ccc2ccccc2c1/N=N/c1ccccc1 — stability deviation (rat whole blood; 16.0 µg/L, 30 days, -20 °C, long-term storage): -0.2%
Cc1cc2c(NC(=O)N[C@@H]3CC(C)(C)Oc4c(OC(F)(F)F)cccc43)cccc2cn1 — hypothermia duration (telemetry; male Sprague-Dawley rats; oral, 100 µmol/kg): ~13 h

Some of these lines once more:
Cc1cc2c(NC(=O)N[C@@H]3CC(C)(C)Oc4c(OC(F)(F)F)cccc43)cccc2cn1 — hypothermia duration (telemetry; male Sprague-Dawley rats; oral, 100 µmol/kg): ~13 h
N=C(N)NS(=O)(=O)c1ccc(-n2cc(Cn3c(=O)c(Cc4ccccc4)nc4ccccc43)nn2)cc1 — safe concentration (MTT; rat primary colonocytes, Albino rat, male; 72 h, concentration at 100% viability): 0.047 ± 0.006 µM
